Results collected from several papers.
A part holds a random share of what one study measured.

Set 1 — technique: competition protein-binding microarray; molecule type: double-stranded DNA, one strand shown; matrix: in vitro; tested at: 2 µM; together with: Pho4 competitor, 0.05 µM; reading: higher = stronger binding; all sequences stand within: … GTCTTGATTCGCTTGACGCTGCTG
Target: Centromere-binding protein 1, full length, His-tagged (CBF1, Saccharomyces cerevisiae, UniProt P17106, residues 1-351)
Chain of UniProt P17106 (whole entry, looked up): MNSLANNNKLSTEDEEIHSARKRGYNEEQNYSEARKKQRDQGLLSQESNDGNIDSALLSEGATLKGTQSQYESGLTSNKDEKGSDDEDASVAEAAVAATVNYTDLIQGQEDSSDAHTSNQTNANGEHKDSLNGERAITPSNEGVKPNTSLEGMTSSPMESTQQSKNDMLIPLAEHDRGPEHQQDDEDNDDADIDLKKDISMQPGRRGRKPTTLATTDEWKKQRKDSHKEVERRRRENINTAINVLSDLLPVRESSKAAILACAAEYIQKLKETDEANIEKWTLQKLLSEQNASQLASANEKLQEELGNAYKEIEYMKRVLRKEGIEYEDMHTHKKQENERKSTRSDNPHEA
Notes: whole 60-bp probe, lowest competitor level
Strand | fluorescence intensity
CTAACGAAGGTTTGCCTCGTGGGTGACAAGCCAAGT | 88.6 a.u.
CGGATCAGTTTACATCATGTGTGCCCCCACCATGAT | 219 a.u.
AAATTACTAAGTTTTCACGTGGCGTACCCCGTATGA | 682 a.u.
AAAGTTATCAAGACCGACGTGTCCTCCTCGTCGTTC | 58.8 a.u.
TTGAGTAACTTTGGGCAGGTGACAGGTAAACCCCTT | 339 a.u.
GTTACCCGGTCGAGTCACGTGCGGATGCGGAGGGCA | 5480 a.u.
CGGGGTTAAGTTTGTCACCCCACTTGCTTGCAGCAG | 68.2 a.u.
GTCTTGTCTCATTGGCGTGTGGGTGTCCCCACTTCA | 78.5 a.u.
GCGGACCAAAAATCGCACGTAGCGCGATATTGTCGG | 67.2 a.u.
TTACAACAGGAATACCTTGTGACAGGCAACCAAGAA | 84.8 a.u.
CTTTCCCGATCTTATCACGTGTTTTTAGCACATTTG | 5120 a.u.
GTCTTGTCTCATTGTCACGAAACTTTCCCCACTTCA | 114 a.u.
CATAACCTTGCCTGCCAAGTGTGGCAAGCAATGACG | 70.8 a.u.

Set 2 — technique: protein-binding microarray; molecule type: double-stranded DNA, one strand shown; matrix: in vitro; tested at: 940 nM top; notes: 60-bp whole probe; together with: salmon DNA 0.4 mg/ml; reference: random background probes; reading: higher = stronger binding; all sequences stand within: GCCTAGCAC … GTCTTGATTCGCTTGACGCTGCTG
Target: Interferon regulatory factor 5, full length, phosphomimetic (IRF5, Homo sapiens, UniProt Q13568-2, residues 1-514, S451D/S453D/S456D/S462D)
Strand | fitted relative affinity [z-score]
TTAGGTTCCGGGACTGGGTTAGTGCTA | 0.682
GACGGTATCGGCTTCGGGACGTGCTAG | 4.75
TCAAGCCTCCATTTTTAACTGTGCTAG | -0.136
GACGCTTTCGACACTGGGGACGTGCTA | 2.34
TTAGATTCCAGTTTCGATGAGTGCTAG | 7.14
TTAGATATCGGGCCTGGATTAGTGCTA | -0.212
TAAGATTTCAGTCTCGATTAGTGCTAG | 4.28
GACGATATTAGTTTCGAGACGTGCTAG | 5.15
TTAGGTATCCTTCTCCATTAGTGCTAG | 0.848
TTAGATTGCAGTTCCGATTAGTGCTAG | 0.817
TCATTTGACTCTTTCTGACTGTGCTAG | 0.901
TACGGTCTCGGTCTCGGGACGTGCTAG | 3.48
GACGGTATCCGACTGCTGACGTGCTAG | -0.395
TTAGGTCTCGTTTTCCTTTAGTGCTAG | 2.93
GACGATATCAGACTGGAGACGTGCTAG | -0.439
GACGAACTGGAGTATCGAGACGTGCTA | 0.65
TTAGGTTTCCTTTCCCTTAAGTGCTAG | 3.18
ATCATTTTCGTTTTTATTATGTGCTAG | 3.34
TTGGCTTTCCTTTATGTCCTGTGCTAG | 0.0909

Set 3 — technique: protein binding microarray; molecule type: double-stranded DNA, one strand shown; matrix: in vitro; tested at: not given; reference: not given; reading: higher = stronger binding
Target: Histone acetyltransferase KAT6A, winged helix 1, GST fusion (KAT6A, Homo sapiens, UniProt Q92794, residues 1-85)
Notes: 8-mer, flanks averaged, mean of 2 arrays, mostly near background
Residues (chain): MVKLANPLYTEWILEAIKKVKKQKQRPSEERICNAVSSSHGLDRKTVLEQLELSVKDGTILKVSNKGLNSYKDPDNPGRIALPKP
Strand | E-score
CTGGGTAA | -0.183
GGTCTATA | -0.162
AGCTGCGC | 0.204
CGTGTCCC | 0.18
AAAATAAC | -0.0891
CACTATGG | -0.0765
CGGACCAA | 0.0114
GGCGCGGA | 0.375
ATCCTGAG | -0.114
AGGATATC | -0.191
AACAATCA | -0.118
GCGTTAGA | 0.0615
CACGGAAA | 0.231
GGACTTCA | -0.0349
GAAGCGCA | 0.308

Set 4 — technique: protein-binding microarray; molecule type: double-stranded DNA, one strand shown; matrix: in vitro; tested at: not given; reading: higher = stronger binding
Target: Transcription factor SOX-2, HMG box (SOX2, Homo sapiens, UniProt P48431, residues 19-118)
Chain of UniProt P48431 (19-118, looked up): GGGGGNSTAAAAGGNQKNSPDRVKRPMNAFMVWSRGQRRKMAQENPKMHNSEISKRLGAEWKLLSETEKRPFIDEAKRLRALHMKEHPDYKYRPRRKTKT
Notes: k-mer, scored over probes, only values ≥0.25
Strand | E-score
TGAACAA | 0.348
CACAATA | 0.426
AATCATA | 0.274
AACAAAA | 0.356
CAATACC | 0.293
GAATTCA | 0.411
AATAGGA | 0.257
AAACAAT | 0.475
GAATTGC | 0.292
ATAATAA | 0.401
CTGATTA | 0.317
AATTTTC | 0.256
AATTAAT | 0.392

Set 5 — technique: RNA Bind-n-Seq; molecule type: RNA; matrix: in vitro; tested at: 365 nM; reference: no-protein control; reading: higher = stronger binding
Target: RNA binding protein fox-1 homolog 2, RRM domain, GST-SBP tag (RBFOX2, Homo sapiens, UniProt O43251-10, residues 100-194)
Notes: natural RNA segment, single round, ends assumed
All sequences stand within: GGGAGUUCUACAGUCCGACGAUC … UGGAAUUCUCGGGUGCCAA
Strand | RBNS enrichment (R)
CGUAUGUCAGUGUAUCUGGAUACACGAGGAAAAGGAAAGAGUCUCAGAGUGGAACAAAGAGUGGGAAGAGGUGAUCUGUAAUGUUACAAAUUGUGCUAUUACUCCAAGGU | 0.57
UAUUUCUUCUCUACUCCCUAGUCUUAAUGUUUAACCUUGAAUGCUAUUAACUUAAAUAGCCAUUGAGGAGUUAGAAGAUGAAUUGUUCAUGAAGUCGGUGUUACAUAAAA | 0.808
GCUGCCCCACAGUGCUUGACCUCUGAGUCAUUGGUUAUACAGUGUAGUCCCAAGCACAUAAACUAGGAAGAGAAUGUAUUUGUAGGAGCGCUACCACCUGUUUUCAAGAG | 0.52
ACUUGUUGCUGGUUUAAAGGUUAUUGUGGGAAACUGAACUAAAGGAGUUAGCAUCUUUAUUUUUGUAUCAAAGAUAAAGGUUAUUUUGAAAAUUAUUAGGGUUUUUACAU | 0.846
CAGCAGCCCUGGUUCCUUCCCAGUCAUACUUAUGGAAGAUGUGCCCUUCCAGAGGAAUAAGUUUGUUCCCUGACCACACUGGGGGACCCAGACUUCAACCCCACAGAGUC | 0.606
AAGGCUUGUAACCAAAACAAGCAAAAAGAAACUUUAGCUGUUUAACUAUCACCUCUCUAAUUUAAAAUGCAUGAAAAUUAAUACUUUGUUUUUGUUUUUUUUUUGGAAAC | 5.15
CCCACUUUGGAUUGGUGGAAGUAAAAACUGGUAACUCACUCAAGUGAAUGAAUGGUCUUGCAUUUUAAAAGCUUAUGGGAAACUCAAUUUGAAAUGAUUAGAAAAUGUCA | 1.06
CCACCACCCCCGCAAAAACAAAAACAAAAACCAUCAUAAGAGCACACAUAGAUCGGAGUGAACAGAGAGCUUUGCCUCAAUCAUUUUUCUGGCUUUCCUCUGCAGCCAGG | 0.895

Set 6 — technique: universal PBM; molecule type: double-stranded DNA, one strand shown; matrix: in vitro; tested at: not given; reading: higher = stronger binding
Target: Sal-like protein 4, full length isoform B (SALL4, Homo sapiens, UniProt Q9UJQ4-2, residues 1-616)
Notes: 8-mer, flanks averaged, mean of replicates
Strand | E-score
CCTAGGCG | -0.251
CATGAAGC | -0.0114
AATCATGT | 0.235
ACTGCTGG | -0.197
ACTTATCC | 0.133
ACCCTGTA | 3e-05
CTAGCTCC | -0.213
AAAGGGGG | -0.0886
CTTGGGTA | 0.0324
AACAACTT | 0.132
ATCACGAG | -0.0939
ATTGCCGC | -0.0869
AGACGACA | -0.0352
ATAATTTA | 0.424
CACAGGGA | -0.189
TGGAGTAA | 0.176
ATCGAGTG | 0.013
CTAAAGAC | -0.0873
AGCTCTTG | -0.172
AGAGAGAA | -0.159
TGCGGCCA | -0.265
GACTAACC | -0.197
AACTCGAA | -0.109
AGGCTCAA | -0.0563

Some of these lines once more (set 4):
Strand | E-score
ATAATAA | 0.401
AACAAAA | 0.356
GAATTGC | 0.292
GAATTCA | 0.411
CAATACC | 0.293
AAACAAT | 0.475
AATTAAT | 0.392
AATCATA | 0.274
TGAACAA | 0.348
CTGATTA | 0.317
AATAGGA | 0.257
